Measured values gathered from unrelated publications.
Lines come from different studies, so protocols differ. Values joined by “and” are separate records of one study, mostly repeats; a detail may differ. ± marks the error that the study gave.
Sequence of UniProt P32300 (whole entry, looked up): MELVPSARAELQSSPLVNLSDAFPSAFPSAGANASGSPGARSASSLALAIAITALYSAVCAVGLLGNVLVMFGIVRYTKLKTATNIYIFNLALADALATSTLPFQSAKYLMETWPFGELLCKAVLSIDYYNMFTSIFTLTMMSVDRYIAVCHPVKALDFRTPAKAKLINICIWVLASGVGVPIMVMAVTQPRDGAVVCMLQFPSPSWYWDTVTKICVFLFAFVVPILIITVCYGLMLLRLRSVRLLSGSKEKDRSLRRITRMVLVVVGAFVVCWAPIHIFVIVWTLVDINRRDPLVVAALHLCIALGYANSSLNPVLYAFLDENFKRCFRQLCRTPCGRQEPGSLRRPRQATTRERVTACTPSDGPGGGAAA
Sequence of UniProt P51955 (whole entry, looked up): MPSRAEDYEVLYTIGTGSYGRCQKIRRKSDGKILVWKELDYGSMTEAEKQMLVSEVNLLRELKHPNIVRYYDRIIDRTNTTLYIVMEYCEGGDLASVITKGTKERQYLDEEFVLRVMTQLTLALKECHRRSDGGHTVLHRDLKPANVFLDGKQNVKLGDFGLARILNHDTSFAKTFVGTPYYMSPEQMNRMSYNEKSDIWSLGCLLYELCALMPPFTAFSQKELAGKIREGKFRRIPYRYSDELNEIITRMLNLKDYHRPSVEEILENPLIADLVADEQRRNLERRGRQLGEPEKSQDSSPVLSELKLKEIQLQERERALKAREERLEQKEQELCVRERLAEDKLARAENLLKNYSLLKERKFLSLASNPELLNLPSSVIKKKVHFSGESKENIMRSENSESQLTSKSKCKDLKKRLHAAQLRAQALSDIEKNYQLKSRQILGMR

COc1ccccc1-c1n[nH]c2nc(NC3CCN(C(=O)Cc4ccc(F)cc4F)CC3)ncc12 — relative abundance (bead binding, competition bead pull-down, refers to: LMJF.27.0930; Leishmania donovani extract; 10 µM; baseline: vehicle): 1.16
COc1cnc2cccc(N3CCc4c(cc(Cn5ccnc5)cc4-c4cn(C)nc4C(F)(F)F)C3=O)c2c1 — body weight (BALB/c nude mice, MV4-11 xenograft; intraperitoneal, 75 mg/kg, day 14): 21.4 g and 22.4 g and 22 g and 23.7 g
O=C1NC2(CC2)COc2ncc(F)cc2[C@H]2COCCN2c2ccn3ncc1c3n2 — organ-to-brain weight ratio (Sprague-Dawley rat, female, ovaries; oral, 2.5 mg/kg/day, 4 weeks dosing, end of recovery): 5.6 ± 0.69%
CSCC[C@H](NC(=O)CNC(=O)[C@H](CCCCN)NC(=O)[C@H](CC(C)C)NC(=O)[C@@H]1CCCN1C(=O)[C@H](CO)NC(=O)[C@H](Cc1c[nH]cn1)NC(=O)[C@H](Cc1c[nH]c2ccccc12)NC(=O)[C@H](CCCNC(=N)N)NC(=O)[C@H](CC(C)C)NC(=O)[C@H](CCCNC(=N)N)NC(=O)[C@H](Cc1c[nH]c2ccccc12)NC(=O)[C@H](CS)NC(=O)CCCCCNC(=O)CN1CCN(CC(=O)O)CCN(CC(=O)O)CCN(CC(=O)O)CC1)C(=O)O [copper-64 labelled] — tissue uptake (ex vivo biodistribution; male C57BL/6J mice, muscle; intravenous, 1.85 MBq, 0.5 h, B16-F10 tumour-bearing): 0.78 %ID/g
CS(C)(=O)=Nc1ccc(-c2ccc(-c3nc4cc(O[C@@H]5CO[C@H]6[C@@H]5OC[C@H]6O)[nH]c4cc3F)cc2)cc1 — inhibition (Oprd1 (Mus musculus, UniProt P32300); calcium signal, antagonist; 10 µM): 21%
CC(C)(C)C(=O)OCOP(=O)(OCOC(=O)C(C)(C)C)C1CCCN(O)C1=O (stereo not drawn) — log GI50 (SN12C): -6.48 log M
CSCC[C@H](N)C(=O)N[C@@H](C)C(=O)N[C@@H](Cc1c[nH]c2ccccc12)C(=O)N[C@@H](Cc1c[nH]cn1)C(=O)N[C@@H](CC(=O)O)C(=O)N[C@@H](CC(=O)O)C(=O)N[C@@H](CCC(=O)O)C(=O)N[C@@H](CCC(=O)O)C(=O)N[C@@H](Cc1ccccc1)C(=O)N[C@@H](C)C(=O)N[C@@H](CCCNC(=N)N)C(=O)N[C@@H](CCCNC(=N)N)C(=O)N[C@@H](CCCNC(=N)N)C(=O)N[C@@H](CCCNC(=N)N)C(=O)NCCCCCC(=O)NCCCCC(NC(=O)CCCCCNC(=O)[C@H](CCCNC(=N)N)NC(=O)[C@H](CCCNC(=N)N)NC(=O)[C@H](CCCNC(=N)N)NC(=O)[C@H](CCCNC(=N)N)NC(=O)[C@H](C)NC(=O)[C@H](Cc1ccccc1)NC(=O)[C@H](CCC(=O)O)NC(=O)[C@H](CCC(=O)O)NC(=O)[C@H](CC(=O)O)NC(=O)[C@H](CC(=O)O)NC(=O)[C@H](Cc1c[nH]cn1)NC(=O)[C@H](Cc1c[nH]c2ccccc12)NC(=O)[C@H](C)NC(=O)[C@@H](N)CCSC)C(=O)NCCCCC(NC(=O)C(CCCCNC(=O)CCCCCNC(=O)[C@H](CCCNC(=N)N)NC(=O)[C@H](CCCNC(=N)N)NC(=O)[C@H](CCCNC(=N)N)NC(=O)[C@H](CCCNC(=N)N)NC(=O)[C@H](C)NC(=O)[C@H](Cc1ccccc1)NC(=O)[C@H](CCC(=O)O)NC(=O)[C@H](CCC(=O)O)NC(=O)[C@H](CC(=O)O)NC(=O)[C@H](CC(=O)O)NC(=O)[C@H](Cc1c[nH]cn1)NC(=O)[C@H](Cc1c[nH]c2ccccc12)NC(=O)[C@H](C)NC(=O)[C@@H](N)CCSC)NC(=O)CCCCCNC(=O)[C@H](CCCNC(=N)N)NC(=O)[C@H](CCCNC(=N)N)NC(=O)[C@H](CCCNC(=N)N)NC(=O)[C@H](CCCNC(=N)N)NC(=O)[C@H](C)NC(=O)[C@H](Cc1ccccc1)NC(=O)[C@H](CCC(=O)O)NC(=O)[C@H](CCC(=O)O)NC(=O)[C@H](CC(=O)O)NC(=O)[C@H](CC(=O)O)NC(=O)[C@H](Cc1c[nH]cn1)NC(=O)[C@H](Cc1c[nH]c2ccccc12)NC(=O)[C@H](C)NC(=O)[C@@H](N)CCSC)C(N)=O (stereo partly drawn) — mean tissue distribution (C57BL/6 mouse female, liver; dose not given, 3 h; baseline: total): 6.65%
O=C([O-])CNC(=O)CN1CCN(CC(=O)NCC(=O)[O-])CCN(CC(=O)NCC(=O)[O-])CCN(CC(=O)NCC(=O)[O-])CC1.[177Lu+3] — biodistribution (Sprague-Dawley rat, large intestine; intravenous, dose not given, 2 h): 0.016 ± 0.039 % injected dose/g
C#Cc1c(F)ccc2cc(O)cc(-c3ncc4c(N5CC6CCC(C5)N6C(=O)OC(C)OC(=O)C5CCOCC5)nc(OC[C@@]56CCCN5C[C@H](F)C6)nc4c3F)c12 (stereo partly drawn) — compound remaining (chemical stability; simulated intestinal fluid; 1 µM, 30 min): 106%
CC[C@H](C)[C@H](NC(=O)[C@H](CO)NC(=O)[C@H](Cc1ccc(O)cc1)NC(=O)[C@H](Cc1ccc(O)cc1)NC(=O)[C@H](CC(N)=O)NC(=O)CNC(=O)[C@H](CO)NC(=O)[C@H](Cc1ccc(O)cc1)NC(=O)[C@H](CO)NC(=O)[C@H](CO)NC(=O)[C@H](CC(N)=O)NC(=O)COCCOCCNC(=O)CN1CCN(CC(=O)O)CCN(CC(=O)O)CCN(CC(=O)O)CC1)C(=O)N[C@@H](CC(C)C)C(N)=O [copper-64 labelled] — tissue uptake (dynamic PET; KPC mouse Ptf1a-CreER tdTomato, pancreas; intravenous, 4.6 MBq/mouse, 8.5 min, 84 d after tamoxifen): 12.6 %ID/mL
CC(C)[C@H]1NC(=O)[C@H](Cc2ccccc2)NC(=O)[C@@H](C(C)C)NC(=O)[C@@H](C)NC(=O)[C@H](CO)NC(=O)[C@@H](Cc2c(-c3ccc(-c4ccc5ccccc5c4)cc3)[nH]c3ccccc23)NC(=O)[C@@H](CO)NC1=O — plasma concentration (Sprague Dawley rat, plasma; oral, 20 mg/kg): not detected
CC[C@H](C)[C@H](NC(=O)[C@H](CCCCN)NC(=O)CNC(=O)[C@H](CC(C)C)NC(=O)[C@H](Cc1ccccc1)NC(=O)[C@H](CCCCN)NC(=O)[C@H](CO)NC(=O)[C@H](Cc1ccccc1)NC(=O)[C@H](Cc1c[nH]c2ccccc12)NC(=O)[C@H](CCC(N)=O)NC(=O)[C@@H](NC(=O)[C@H](Cc1ccccc1)NC(=O)CCCCCNC(=O)CN1CCN(CC(=O)O)CCN(CC(=O)O)CCN(CC(=O)O)CC1)C(C)C)C(=O)N[C@@H](CCC(=O)O)C(=O)N1CCC[C@H]1C(=O)N[C@@H](CC(=O)O)C(=O)N[C@H](C(=O)N[C@@H](CO)C(=O)N[C@@H](CCC(N)=O)C(=O)N[C@H](C(=O)N[C@@H](CCC(N)=O)C(=O)N[C@@H](CC(=O)O)C(=O)N1CCC[C@H]1C(=O)N[C@@H](CC(N)=O)C(=O)N[C@@H](CC(=O)O)C(=O)N[C@@H](CCC(N)=O)C(=O)N[C@@H](Cc1ccc(O)cc1)C(=O)N[C@@H](CCC(=O)O)C(=O)N1CCC[C@H]1C(=O)N[C@@H](Cc1ccccc1)C(=O)O)C(C)C)C(C)C [copper-64 labelled] — tissue uptake (BALB/c mice, male, CT26 tumour-bearing, bone; 2 h, vehicle-treated): 0.53 ± 0.1 %ID/g
COc1ccccc1-c1n[nH]c2nc(N[C@H]3CC[C@H](NS(=O)(=O)CC(C)C)CC3)ncc12 — relative abundance (bead binding, competition bead pull-down, refers to: LINJ.09.0820; Leishmania donovani extract; 10 µM; baseline: vehicle): 1.21
CN(C)[C@H]1C[C@@]23CC[C@@]4(O2)C(=CC[C@]2(C)[C@@H](c5ccc6ccncc6c5)CC[C@H]24)C=C3[C@@H](O)[C@@H]1O — inhibition (NEK2 (Homo sapiens, UniProt P51955); ATP probe labelling, inhibitor, KiNativ profiling; 0.1 µM): 14%
CCc1nn(C)c2nc(-c3ccc(C(=O)O)cc3)nc(NCc3ccccc3)c12 — body weight (NSG mice; dose not given, day 7 of treatment): 23 g and 22 g and 24.2 g and 23.5 g
N=C(N)NCCC[C@@H](NC(=O)[C@H](N)Cc1c[nH]c2ccccc12)C(=O)N[C@H](CCCCN)C(=O)N[C@H](Cc1c[nH]c2ccccc12)C(=O)N[C@H](CCCNC(=N)N)C(=O)N[C@H](CCCCN)C(=O)N[C@H](Cc1c[nH]c2ccccc12)C(=O)N[C@H](CCCNC(=N)N)C(=O)N[C@H](CCCCN)C(=O)N[C@H](Cc1c[nH]c2ccccc12)C(=O)N[C@H](CCCNC(=N)N)C(=O)N[C@H](CCCCN)C(N)=O — survival (mouse; intraperitoneal, 30 mg/kg single dose, day 5): 100%
CCCCCCCCCCCCCCCC(=O)N[C@@H](CCC(=O)NCCOCCOCCC(=O)NCCOCCOCCC(=O)NCCCC[C@H](NC(=O)[C@H](CC(=O)O)NC(=O)[C@H](CC(C)C)NC(=O)[C@H](Cc1ccc(O)cc1)NC(=O)[C@H](CCCCN)NC(=O)[C@H](CO)NC(=O)[C@H](Cc1ccc(O)cc1)NC(=O)[C@H](CC(=O)O)NC(=O)[C@H](CO)NC(=O)[C@@H](NC(=O)[C@H](Cc1ccccc1)NC(=O)[C@@H](NC(=O)CNC(=O)[C@H](CCC(N)=O)NC(=O)[C@@H](CO)NC(=O)[C@@H](N)Cc1c[nH]cn1)[C@@H](C)O)[C@@H](C)O)C(=O)N[C@@H](CCCNC(=N)N)C(=O)N[C@@H](CCCNC(=N)N)C(=O)N[C@@H](C)C(=O)N[C@@H](CCC(N)=O)C(=O)N[C@@H](CC(=O)O)C(=O)N[C@@H](Cc1ccccc1)C(=O)N[C@H](C(=O)N[C@@H](CCC(N)=O)C(=O)N[C@@H](Cc1c[nH]c2ccccc12)C(=O)N[C@@H](CC(C)C)C(=O)N[C@@H](CC(C)C)C(=O)N[C@@H](CC(N)=O)C(=O)N[C@H](C(=O)NCC(=O)NCC(=O)N1CCC[C@H]1C(=O)N[C@@H](CO)C(=O)N[C@@H](CO)C(=O)NCC(=O)N[C@@H](C)C(=O)N1CCC[C@H]1C(=O)N1CCC[C@H]1C(=O)N1CCC[C@H]1C(=O)N[C@@H](CO)C(N)=O)[C@@H](C)O)C(C)C)C(=O)O — urea (Sprague-Dawley rat, male; subcutaneous, 500 µg/kg once daily, 14 days): 4.02 ± 0.38 mmol/L
CC[C@H](C)[C@H](NC(=O)[C@H](CCCN)NC(=O)[C@H](CCCNC(=N)N)NC(=O)[C@@H]1CCCN1C(=O)[C@@H]1CCCN1C(=O)[C@H](CCCNC(=N)N)NC(=O)[C@@H]1CCCN1C(=O)[C@H](CCCNC(=N)N)NC(=O)[C@@H]1CCCN1C(=O)[C@H](CC(C)C)NC(=O)[C@H](Cc1ccc(O)cc1)NC(=O)[C@@H]1CCCN1C(=O)[C@@H]1CCCN1C(=O)[C@H](CCCCN)NC(=O)[C@H](CC(=O)O)NC(=O)[C@@H](N)C(C)C)C(=O)N[C@@H](Cc1ccc(O)cc1)C(=O)N[C@@H](CC(N)=O)C(=O)N[C@@H](CCCN)C(N)=O — clearance (competitive ELISA; mouse CD-1, female, plasma; subcutaneous, 4.34 µmol/kg): 0.76 mL/min

Excerpt of the above:
CCc1nn(C)c2nc(-c3ccc(C(=O)O)cc3)nc(NCc3ccccc3)c12 — body weight (NSG mice; dose not given, day 7 of treatment): 23 g and 22 g and 24.2 g and 23.5 g
CSCC[C@H](NC(=O)CNC(=O)[C@H](CCCCN)NC(=O)[C@H](CC(C)C)NC(=O)[C@@H]1CCCN1C(=O)[C@H](CO)NC(=O)[C@H](Cc1c[nH]cn1)NC(=O)[C@H](Cc1c[nH]c2ccccc12)NC(=O)[C@H](CCCNC(=N)N)NC(=O)[C@H](CC(C)C)NC(=O)[C@H](CCCNC(=N)N)NC(=O)[C@H](Cc1c[nH]c2ccccc12)NC(=O)[C@H](CS)NC(=O)CCCCCNC(=O)CN1CCN(CC(=O)O)CCN(CC(=O)O)CCN(CC(=O)O)CC1)C(=O)O [copper-64 labelled] — tissue uptake (ex vivo biodistribution; male C57BL/6J mice, muscle; intravenous, 1.85 MBq, 0.5 h, B16-F10 tumour-bearing): 0.78 %ID/g
C#Cc1c(F)ccc2cc(O)cc(-c3ncc4c(N5CC6CCC(C5)N6C(=O)OC(C)OC(=O)C5CCOCC5)nc(OC[C@@]56CCCN5C[C@H](F)C6)nc4c3F)c12 (stereo partly drawn) — compound remaining (chemical stability; simulated intestinal fluid; 1 µM, 30 min): 106%
